Assay results of several laboratories.
Lines come from different studies, so protocols differ. ± gives the spread as reported.

CC(=O)c1c(C)c2cnc(Nc3ccc(N4CCNCC4)cn3)nc2n(C2CCCC2)c1=O
Ctrough (LC-MS/MS; human, plasma; oral, 75 mg, cycle 1 day 15, together with: neratinib 160 mg): 104 ng/mL

Cn1ncnc1[C@H]1c2n[nH]c(=O)c3cc(F)cc(c23)N[C@@H]1c1ccc(F)cc1
Ctrough (human patients, plasma; oral, 600 µg/m2/day, day 6): 3.8 ± 1.9 ng/mL

Cc1cc(Nc2cc3ncccc3c(N[C@@H]3C[C@H]4CC[C@@H](C3)N4CCC#N)n2)n[nH]1
Ctrough (human; 270 mg, day 14, geometric mean): 0.701 ng/mL

C[C@H]1O[C@@H](O[C@H]2[C@@H](O)C[C@H](O[C@H]3[C@@H](O)C[C@H](O[C@H]4CC[C@@]5(C)[C@H](CC[C@@H]6[C@@H]5C[C@@H](O)[C@]5(C)[C@@H](C7=CC(=O)OC7)CC[C@]65O)C4)O[C@@H]3C)O[C@@H]2C)C[C@H](O)[C@@H]1O
Ctrough (human, plasma; 0.375 mg, alone, geometric mean): 0.683 ng/mL

Cc1cc(C)c(CNC(=O)c2cc(Cl)c3c(c2C)O[C@@](C)([C@H]2CC[C@H](N(C)C)CC2)O3)c(=O)[nH]1
Ctrough (human NHL patients, plasma; oral, 200 mg/day, 15 day): 205 ng/mL

COc1cc(-c2cnc3cc(OCCN4CCOCC4)ccn23)cc2c1C(=O)N(CC(F)(F)F)CC2
Ctrough (LC-MS; human, plasma; oral, 350 mg once daily, day 6, co-dosed with methotrexate; arithmetic mean): 52.2 ng/mL

COc1ccc([C@@H](O)c2cc(-c3ncnc4cc(N5CCOCC5)ccc34)c(F)cc2Cl)nn1
Ctrough (LC-MS; human, plasma; oral, 100 mg twice daily, multiple dose, geometric mean): 126 ng/mL

NCCONC(=O)[C@@H]1CC[C@@H]2CN1C(=O)N2OS(=O)(=O)O
Ctrough (human, plasma; intravenous infusion, 2 g, days 7 to 9, multiple dosing, range of means): 5780 to 6120 ng/mL

Cl.[2H]C([2H])([2H])CC(=O)c1cnc(NC(=O)C2CC2)cc1Nc1cccc(-c2ncn(C([2H])([2H])[2H])n2)c1OC
Ctrough (human, fasted, multiple dose; oral, 10 mg once daily, liquid formulation, day 7, geometric mean): 10.9 ng/mL

Excerpt of the above:
CC(=O)c1c(C)c2cnc(Nc3ccc(N4CCNCC4)cn3)nc2n(C2CCCC2)c1=O
Ctrough (LC-MS/MS; human, plasma; oral, 75 mg, cycle 1 day 15, together with: neratinib 160 mg): 104 ng/mL
